Experimental data of several laboratories.
Parts stem from different laboratories: compare values within a part only. Values joined by “and” are separate records of one study, mostly repeats; a detail may differ.
UniProt P51957, sequence (whole entry, looked up): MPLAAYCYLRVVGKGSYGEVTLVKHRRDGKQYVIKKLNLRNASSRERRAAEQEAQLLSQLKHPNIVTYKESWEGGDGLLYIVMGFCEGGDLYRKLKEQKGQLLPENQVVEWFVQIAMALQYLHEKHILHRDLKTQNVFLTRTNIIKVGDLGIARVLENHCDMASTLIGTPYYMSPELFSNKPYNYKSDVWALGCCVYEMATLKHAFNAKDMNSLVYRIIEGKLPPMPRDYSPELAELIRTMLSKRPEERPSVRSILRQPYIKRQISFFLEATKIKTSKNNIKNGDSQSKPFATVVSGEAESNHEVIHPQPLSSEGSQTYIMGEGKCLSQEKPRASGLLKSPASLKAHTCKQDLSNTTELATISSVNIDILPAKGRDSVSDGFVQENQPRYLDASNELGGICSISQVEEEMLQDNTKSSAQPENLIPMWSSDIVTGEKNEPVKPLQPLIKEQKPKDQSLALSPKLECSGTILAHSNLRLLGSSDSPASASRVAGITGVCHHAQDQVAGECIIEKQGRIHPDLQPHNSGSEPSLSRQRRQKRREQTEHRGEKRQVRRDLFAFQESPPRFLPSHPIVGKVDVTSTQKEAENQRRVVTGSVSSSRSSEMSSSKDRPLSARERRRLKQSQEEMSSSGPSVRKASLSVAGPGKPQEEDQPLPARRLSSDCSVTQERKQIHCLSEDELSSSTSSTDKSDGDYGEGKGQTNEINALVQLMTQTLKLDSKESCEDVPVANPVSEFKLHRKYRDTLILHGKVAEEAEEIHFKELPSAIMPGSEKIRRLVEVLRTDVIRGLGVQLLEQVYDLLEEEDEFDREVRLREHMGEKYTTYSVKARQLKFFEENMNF
UniProt Q32MK0, sequence (whole entry, looked up): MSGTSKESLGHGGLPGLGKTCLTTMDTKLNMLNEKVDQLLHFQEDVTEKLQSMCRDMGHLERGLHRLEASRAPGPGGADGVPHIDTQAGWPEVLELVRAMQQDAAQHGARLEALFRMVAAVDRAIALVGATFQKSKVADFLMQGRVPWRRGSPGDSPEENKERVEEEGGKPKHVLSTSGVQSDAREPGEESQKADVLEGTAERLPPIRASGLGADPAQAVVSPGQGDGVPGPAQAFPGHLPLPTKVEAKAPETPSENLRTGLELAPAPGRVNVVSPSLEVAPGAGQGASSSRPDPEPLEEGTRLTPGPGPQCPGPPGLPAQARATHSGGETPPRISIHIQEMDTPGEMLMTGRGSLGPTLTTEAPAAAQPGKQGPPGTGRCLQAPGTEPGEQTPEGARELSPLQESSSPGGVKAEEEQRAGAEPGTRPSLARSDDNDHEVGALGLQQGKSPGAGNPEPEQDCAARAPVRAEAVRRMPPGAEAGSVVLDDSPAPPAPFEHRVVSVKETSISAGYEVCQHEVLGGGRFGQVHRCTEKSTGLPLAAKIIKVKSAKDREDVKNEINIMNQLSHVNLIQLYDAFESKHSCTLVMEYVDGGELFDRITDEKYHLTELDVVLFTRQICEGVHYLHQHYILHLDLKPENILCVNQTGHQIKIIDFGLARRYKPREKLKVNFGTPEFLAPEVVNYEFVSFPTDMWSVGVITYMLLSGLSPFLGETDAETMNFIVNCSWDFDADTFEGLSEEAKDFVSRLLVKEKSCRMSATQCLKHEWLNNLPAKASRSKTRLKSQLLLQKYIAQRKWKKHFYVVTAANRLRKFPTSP
UniProt Q9NY57, sequence (whole entry, looked up): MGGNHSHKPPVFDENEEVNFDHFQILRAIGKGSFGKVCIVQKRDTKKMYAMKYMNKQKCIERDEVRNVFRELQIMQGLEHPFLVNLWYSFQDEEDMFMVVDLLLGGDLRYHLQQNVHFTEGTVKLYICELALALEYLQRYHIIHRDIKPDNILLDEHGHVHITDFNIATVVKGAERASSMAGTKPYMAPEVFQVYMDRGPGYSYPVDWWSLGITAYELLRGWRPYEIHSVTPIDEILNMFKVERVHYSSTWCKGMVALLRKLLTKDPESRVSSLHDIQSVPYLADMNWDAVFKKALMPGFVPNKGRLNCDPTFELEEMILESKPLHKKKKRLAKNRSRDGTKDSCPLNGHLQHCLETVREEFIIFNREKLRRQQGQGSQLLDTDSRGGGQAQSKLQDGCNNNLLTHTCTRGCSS
UniProt Q5TCX8, sequence (whole entry, looked up): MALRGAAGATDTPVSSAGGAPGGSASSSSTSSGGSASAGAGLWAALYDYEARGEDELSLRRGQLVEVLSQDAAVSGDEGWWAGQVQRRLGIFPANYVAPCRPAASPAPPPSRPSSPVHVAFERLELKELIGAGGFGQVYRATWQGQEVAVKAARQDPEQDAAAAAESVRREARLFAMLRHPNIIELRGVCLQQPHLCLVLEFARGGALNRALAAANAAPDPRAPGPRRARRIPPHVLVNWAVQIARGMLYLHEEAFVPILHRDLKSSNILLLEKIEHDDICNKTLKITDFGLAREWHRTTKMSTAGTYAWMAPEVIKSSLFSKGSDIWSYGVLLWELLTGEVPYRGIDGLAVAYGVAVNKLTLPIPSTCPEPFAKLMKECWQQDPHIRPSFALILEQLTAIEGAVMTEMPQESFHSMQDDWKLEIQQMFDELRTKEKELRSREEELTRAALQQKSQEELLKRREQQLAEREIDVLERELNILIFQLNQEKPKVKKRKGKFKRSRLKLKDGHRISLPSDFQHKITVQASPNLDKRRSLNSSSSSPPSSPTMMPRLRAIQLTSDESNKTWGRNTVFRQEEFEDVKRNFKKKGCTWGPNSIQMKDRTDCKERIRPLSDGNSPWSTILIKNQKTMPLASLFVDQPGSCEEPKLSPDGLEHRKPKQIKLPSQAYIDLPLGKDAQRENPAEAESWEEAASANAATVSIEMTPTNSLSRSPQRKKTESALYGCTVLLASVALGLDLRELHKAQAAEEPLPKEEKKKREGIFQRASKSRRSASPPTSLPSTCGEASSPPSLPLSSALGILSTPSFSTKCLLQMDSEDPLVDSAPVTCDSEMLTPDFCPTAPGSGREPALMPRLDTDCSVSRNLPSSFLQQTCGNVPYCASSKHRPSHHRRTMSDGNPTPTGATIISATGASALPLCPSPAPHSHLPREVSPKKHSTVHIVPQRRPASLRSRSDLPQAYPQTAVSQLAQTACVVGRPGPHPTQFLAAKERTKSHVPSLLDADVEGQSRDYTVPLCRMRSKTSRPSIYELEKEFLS
UniProt Q9UIK4, sequence (whole entry, looked up): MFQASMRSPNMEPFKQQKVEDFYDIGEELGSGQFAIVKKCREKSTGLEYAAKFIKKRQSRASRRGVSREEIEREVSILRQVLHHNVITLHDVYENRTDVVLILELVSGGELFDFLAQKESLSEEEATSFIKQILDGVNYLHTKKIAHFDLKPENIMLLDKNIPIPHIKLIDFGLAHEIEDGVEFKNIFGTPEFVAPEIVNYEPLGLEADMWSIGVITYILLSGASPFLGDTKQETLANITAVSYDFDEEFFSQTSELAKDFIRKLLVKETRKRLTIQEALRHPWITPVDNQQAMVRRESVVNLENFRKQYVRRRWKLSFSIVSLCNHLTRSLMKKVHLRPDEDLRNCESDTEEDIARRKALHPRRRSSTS

Series 1
SMILES: C[C@@H]1CN(c2ccc(-c3cc(C(=O)NCCOCCOCCOCCOCCNC(=O)Cn4cc(-c5[nH]cc(C(=O)N[C@@H](CC(N)=O)c6ccc(F)c(Cl)c6)c5-c5ccc(Cl)cc5F)cn4)ccc3F)cc2NC(=O)c2c[nH]c(=O)cc2C(F)(F)F)C[C@H](C)N1C
Observed: thermal unfolding
Method: differential scanning fluorimetry
Concentration: 5.5 µM
Reading: higher = more unfolded
DCAF1: DDB1- and CUL4-associated factor 1 (DCAF1, Homo sapiens, UniProt Q9Y4B6)
UniProt Q9Y4B6, sequence (whole entry, looked up): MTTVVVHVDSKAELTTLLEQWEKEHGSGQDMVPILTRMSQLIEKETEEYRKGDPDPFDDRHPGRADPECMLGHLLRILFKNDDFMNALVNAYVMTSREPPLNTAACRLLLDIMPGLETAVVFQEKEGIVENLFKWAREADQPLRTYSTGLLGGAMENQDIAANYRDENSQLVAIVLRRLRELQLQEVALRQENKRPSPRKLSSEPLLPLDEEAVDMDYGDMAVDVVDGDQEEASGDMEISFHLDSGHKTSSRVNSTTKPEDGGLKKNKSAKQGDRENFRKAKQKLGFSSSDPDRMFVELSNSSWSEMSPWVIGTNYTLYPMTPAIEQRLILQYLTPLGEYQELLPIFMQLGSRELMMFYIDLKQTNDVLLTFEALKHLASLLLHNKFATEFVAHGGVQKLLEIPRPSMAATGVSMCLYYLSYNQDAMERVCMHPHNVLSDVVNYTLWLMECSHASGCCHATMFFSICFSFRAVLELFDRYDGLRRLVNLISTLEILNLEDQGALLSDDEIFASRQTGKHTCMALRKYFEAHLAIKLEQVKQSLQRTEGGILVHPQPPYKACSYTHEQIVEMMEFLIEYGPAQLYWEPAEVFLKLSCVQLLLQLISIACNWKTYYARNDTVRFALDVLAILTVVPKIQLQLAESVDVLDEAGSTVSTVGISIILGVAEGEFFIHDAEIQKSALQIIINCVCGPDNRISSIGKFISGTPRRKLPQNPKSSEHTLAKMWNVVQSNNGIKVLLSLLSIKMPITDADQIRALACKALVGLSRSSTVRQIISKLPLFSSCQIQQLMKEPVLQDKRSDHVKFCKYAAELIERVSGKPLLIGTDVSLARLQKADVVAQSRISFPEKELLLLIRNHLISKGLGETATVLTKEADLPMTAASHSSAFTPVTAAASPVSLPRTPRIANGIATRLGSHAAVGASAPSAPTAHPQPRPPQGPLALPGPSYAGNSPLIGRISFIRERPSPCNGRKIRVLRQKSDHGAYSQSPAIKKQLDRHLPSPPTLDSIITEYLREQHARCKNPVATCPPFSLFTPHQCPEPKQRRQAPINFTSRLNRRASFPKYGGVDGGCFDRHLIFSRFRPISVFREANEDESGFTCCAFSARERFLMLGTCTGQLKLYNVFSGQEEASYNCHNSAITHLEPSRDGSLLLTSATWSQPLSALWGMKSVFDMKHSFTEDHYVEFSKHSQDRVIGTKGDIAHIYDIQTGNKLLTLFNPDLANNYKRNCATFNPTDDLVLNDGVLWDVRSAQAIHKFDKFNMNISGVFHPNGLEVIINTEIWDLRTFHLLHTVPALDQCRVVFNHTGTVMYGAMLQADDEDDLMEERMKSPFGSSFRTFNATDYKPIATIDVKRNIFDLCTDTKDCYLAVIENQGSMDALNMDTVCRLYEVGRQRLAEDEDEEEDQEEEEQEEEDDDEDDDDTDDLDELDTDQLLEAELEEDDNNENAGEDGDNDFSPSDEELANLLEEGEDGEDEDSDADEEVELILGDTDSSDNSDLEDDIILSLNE
WDR5: WD repeat-containing protein 5 (WDR5, Homo sapiens, UniProt P61964)
target | conditions | SYPRO Orange fluorescence
DCAF1 | 93.61 °C | 31400 a.u.
WDR5 | 42.4 °C | 14200 a.u.
DCAF1 | 27.6 °C | 7760 a.u.
DCAF1 | 53.81 °C | 17500 a.u.
WDR5 | 78.81 °C | 19600 a.u.
DCAF1 | 84.81 °C | 40000 a.u.
WDR5 | 87.81 °C | 43500 a.u.

Series 2
SMILES: CCN1/C(=C/C=C2\CCCC(/C=C/C3=[N+](CC)c4ccccc4C3(C)C)=C2NCCCCCCCCN2CCC(Nc3nc4ccccc4n3Cc3ccc(F)cc3)CC2)C(C)(C)c2ccccc21
Cell line: U-87 MG
Concentration: concentration not given
Relative to: DMSO
test | log2 fold change
measured: ELOVL7 mRNA | 1.39
measured: CALHM5 mRNA | -1.35
measured: ZNF618 mRNA | -2.42
measured: TDP2 mRNA | 1.06
measured: HIRIP3 mRNA | -0.816
measured: ADAM17 mRNA | 0.976
measured: FICD mRNA | 1.69
measured: AFTPH mRNA | 1.12
measured: TUBE1 mRNA | 1.11
measured: ZBTB43 mRNA | 0.884
measured: SESN2 mRNA | 1.6

Series 3
SMILES: COc1cc(-c2nc3ccc(C(=O)NCCCN(C)C)cc3n2C2CCC2)cc(OC)c1OC
Method: NanoBRET
Concentration: 1 µM
target | target occupancy
NEK4 (Homo sapiens, UniProt P51957) | 2.57%
Cyclin-dependent kinase 10, with cyclin L2 (CDK10, Homo sapiens, UniProt Q15131) | -14.8%
CLK4 (Homo sapiens, UniProt Q9HAZ1) | -7.61%
MAP3K21 (Homo sapiens, UniProt Q5TCX8) | 6.89%
CDKL2 (Homo sapiens, UniProt Q92772) | 1.72%
MAP4K3 (Homo sapiens, UniProt Q8IVH8) | -1.54%
FGFR3 (Homo sapiens, UniProt P22607) | -2.55%
MARK4 (Homo sapiens, UniProt Q96L34) | -5.16%
CDKL1 (Homo sapiens, UniProt Q00532) | -2.46%
PHKG1 (Homo sapiens, UniProt Q16816) | -9.63%
MYLK3 (Homo sapiens, UniProt Q32MK0) | -6.9%
IGF1R (Homo sapiens, UniProt P08069) | -0.53%
Cyclin-dependent kinase 5, with CDK5R1 (CDK5, Homo sapiens, UniProt Q00535) | 0.02%
DAPK2 (Homo sapiens, UniProt Q9UIK4) | -3.39%
CAMK2A (Homo sapiens, UniProt Q9UQM7) | 1.61%
PHKG2 (Homo sapiens, UniProt P15735) | -3.57%
RET (Homo sapiens, UniProt P07949) | 2.21%
STK32B (Homo sapiens, UniProt Q9NY57) | 1.12%
JAK3 (Homo sapiens, UniProt P52333) | 1.11%
STK4 (Homo sapiens, UniProt Q13043) | 4.75%

Series 4
Cell line: L444P/L444P Gaucher fibroblasts
Method: 4-MUG hydrolysis in lysate
Concentration: 1 µM
Time: 72 h
Relative to: vehicle
SMILES | enzyme activity
Ic1ccc(Nc2nc(NCCN3CCOCC3)nc(N3CC4CCC(C3)O4)n2)cc1 | 102%
Ic1ccc(Nc2nc(NCCc3c[nH]c4ccccc34)nc(N3CCOCC3)n2)cc1 | 196% and 177% and 173% and 174% and 186%
Fc1ccc(Nc2nc(NCCN3CCOCC3)nc(N3CCOCC3)n2)cc1 | 98%
Ic1ccc(Nc2nc(NCCc3c[nH]c4ccccc34)nc(NCCN3CCOCC3)n2)cc1 | 94%
Ic1ccc(Nc2nc(NCCN3CCOCC3)nc(N3CCCC3)n2)cc1 | 98%
CCN(CC)c1nc(NCCN2CCOCC2)nc(Nc2ccc(I)cc2)n1 | 94%
Ic1ccc(Nc2nc(NCCN3CCCCC3)nc(N3CCOCC3)n2)cc1 | 111%
Ic1ccc(Nc2nc(N3CCOCC3)nc(N3CCOCC3)n2)cc1 | 166%
Cc1ccc(Nc2nc(NCCN3CCOCC3)nc(N3CCOCC3)n2)cc1 | 108%
c1ccc(Nc2nc(NCCN3CCOCC3)nc(N3CCOCC3)n2)cc1 | 98%
CCOc1ccc2nc(Sc3nc(NCCN4CCOCC4)nc(Nc4ccc(I)cc4)n3)sc2c1 | 104%
CCOc1ccc2nc(Sc3nc(Nc4ccc(I)cc4)nc(N4CCOCC4)n3)sc2c1 | 115% and 107% and 106% and 121% and 117%

For quick reference, copied from above (series 3):
target | target occupancy
IGF1R (Homo sapiens, UniProt P08069) | -0.53%
Cyclin-dependent kinase 5, with CDK5R1 (CDK5, Homo sapiens, UniProt Q00535) | 0.02%
DAPK2 (Homo sapiens, UniProt Q9UIK4) | -3.39%
CAMK2A (Homo sapiens, UniProt Q9UQM7) | 1.61%
PHKG2 (Homo sapiens, UniProt P15735) | -3.57%
RET (Homo sapiens, UniProt P07949) | 2.21%
